# Measurements collected from several papers.
# “And” joins repeats or separate records; there may be more than shown. ± marks the error that the study gave.
# BMPR2: Bone morphogenetic protein receptor type-2 (BMPR2, Homo sapiens, UniProt Q13873)
# TOP2A: DNA topoisomerase 2-alpha (TOP2A, Homo sapiens, UniProt P11388)
# Sequence of UniProt P11388 (whole entry, looked up): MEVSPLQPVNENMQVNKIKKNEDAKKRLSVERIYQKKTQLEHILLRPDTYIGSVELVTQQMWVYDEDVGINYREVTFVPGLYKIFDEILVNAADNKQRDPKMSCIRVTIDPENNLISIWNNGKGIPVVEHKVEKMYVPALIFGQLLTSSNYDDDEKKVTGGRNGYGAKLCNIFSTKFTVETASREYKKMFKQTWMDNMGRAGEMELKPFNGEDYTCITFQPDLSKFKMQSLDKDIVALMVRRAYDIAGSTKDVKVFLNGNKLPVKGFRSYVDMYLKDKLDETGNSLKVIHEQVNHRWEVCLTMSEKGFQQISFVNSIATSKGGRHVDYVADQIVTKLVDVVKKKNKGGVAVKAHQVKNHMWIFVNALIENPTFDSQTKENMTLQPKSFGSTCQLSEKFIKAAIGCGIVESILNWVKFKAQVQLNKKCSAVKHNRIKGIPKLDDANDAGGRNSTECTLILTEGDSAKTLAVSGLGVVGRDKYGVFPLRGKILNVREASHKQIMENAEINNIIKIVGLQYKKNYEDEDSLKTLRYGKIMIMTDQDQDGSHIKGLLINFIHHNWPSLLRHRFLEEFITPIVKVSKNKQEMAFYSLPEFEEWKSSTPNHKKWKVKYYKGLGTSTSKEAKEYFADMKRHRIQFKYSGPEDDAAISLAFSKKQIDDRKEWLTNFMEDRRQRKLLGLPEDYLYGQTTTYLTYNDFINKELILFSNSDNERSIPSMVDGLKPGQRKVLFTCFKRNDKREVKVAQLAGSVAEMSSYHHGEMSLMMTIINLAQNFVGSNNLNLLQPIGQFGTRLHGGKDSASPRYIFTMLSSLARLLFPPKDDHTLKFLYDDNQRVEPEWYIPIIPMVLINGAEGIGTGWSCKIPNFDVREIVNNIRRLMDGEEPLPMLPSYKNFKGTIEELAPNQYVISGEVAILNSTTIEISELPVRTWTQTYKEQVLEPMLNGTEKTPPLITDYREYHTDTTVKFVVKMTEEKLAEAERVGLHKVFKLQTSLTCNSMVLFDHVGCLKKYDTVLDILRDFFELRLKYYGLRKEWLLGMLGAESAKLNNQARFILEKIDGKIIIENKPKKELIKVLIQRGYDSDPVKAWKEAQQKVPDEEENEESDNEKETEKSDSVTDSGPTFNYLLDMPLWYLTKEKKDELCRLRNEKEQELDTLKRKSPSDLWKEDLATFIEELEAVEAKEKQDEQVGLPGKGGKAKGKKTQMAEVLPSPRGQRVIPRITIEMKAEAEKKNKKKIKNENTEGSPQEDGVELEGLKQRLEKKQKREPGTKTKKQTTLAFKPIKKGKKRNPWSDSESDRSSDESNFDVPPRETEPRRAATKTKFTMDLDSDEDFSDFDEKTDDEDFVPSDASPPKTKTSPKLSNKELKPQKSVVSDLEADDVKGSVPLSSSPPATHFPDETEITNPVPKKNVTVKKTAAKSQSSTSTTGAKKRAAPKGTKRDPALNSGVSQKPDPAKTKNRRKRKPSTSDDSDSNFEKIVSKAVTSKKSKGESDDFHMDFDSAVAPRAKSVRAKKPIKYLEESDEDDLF
# GUK1: GUK1 (Homo sapiens, UniProt Q16774)
# Sequence of UniProt Q16774 (whole entry, looked up): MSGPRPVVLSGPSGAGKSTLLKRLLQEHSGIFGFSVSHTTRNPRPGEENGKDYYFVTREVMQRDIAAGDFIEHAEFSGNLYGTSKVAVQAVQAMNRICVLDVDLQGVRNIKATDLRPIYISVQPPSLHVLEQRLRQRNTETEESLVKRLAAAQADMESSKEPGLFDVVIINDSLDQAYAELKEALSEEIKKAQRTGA
# CA12: Carbonic anhydrase 12 (CA12, Homo sapiens, UniProt O43570)
# Sequence of UniProt O43570 (whole entry, looked up): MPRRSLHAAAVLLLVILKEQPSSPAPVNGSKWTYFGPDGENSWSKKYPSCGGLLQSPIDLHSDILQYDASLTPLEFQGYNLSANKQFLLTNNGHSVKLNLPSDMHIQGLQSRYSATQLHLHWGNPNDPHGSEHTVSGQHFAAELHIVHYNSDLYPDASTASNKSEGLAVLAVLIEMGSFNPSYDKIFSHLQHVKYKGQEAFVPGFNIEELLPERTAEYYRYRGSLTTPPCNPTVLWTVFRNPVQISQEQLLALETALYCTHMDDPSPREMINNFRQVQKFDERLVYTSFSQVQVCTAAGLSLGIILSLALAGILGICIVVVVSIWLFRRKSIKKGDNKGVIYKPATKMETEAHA
# ZBTB11/CRBN: ZBTB11/CRBN (Homo sapiens, UniProt O95625+Q96SW2)
# Sequence of UniProt P10721 (whole entry, unmodified, looked up): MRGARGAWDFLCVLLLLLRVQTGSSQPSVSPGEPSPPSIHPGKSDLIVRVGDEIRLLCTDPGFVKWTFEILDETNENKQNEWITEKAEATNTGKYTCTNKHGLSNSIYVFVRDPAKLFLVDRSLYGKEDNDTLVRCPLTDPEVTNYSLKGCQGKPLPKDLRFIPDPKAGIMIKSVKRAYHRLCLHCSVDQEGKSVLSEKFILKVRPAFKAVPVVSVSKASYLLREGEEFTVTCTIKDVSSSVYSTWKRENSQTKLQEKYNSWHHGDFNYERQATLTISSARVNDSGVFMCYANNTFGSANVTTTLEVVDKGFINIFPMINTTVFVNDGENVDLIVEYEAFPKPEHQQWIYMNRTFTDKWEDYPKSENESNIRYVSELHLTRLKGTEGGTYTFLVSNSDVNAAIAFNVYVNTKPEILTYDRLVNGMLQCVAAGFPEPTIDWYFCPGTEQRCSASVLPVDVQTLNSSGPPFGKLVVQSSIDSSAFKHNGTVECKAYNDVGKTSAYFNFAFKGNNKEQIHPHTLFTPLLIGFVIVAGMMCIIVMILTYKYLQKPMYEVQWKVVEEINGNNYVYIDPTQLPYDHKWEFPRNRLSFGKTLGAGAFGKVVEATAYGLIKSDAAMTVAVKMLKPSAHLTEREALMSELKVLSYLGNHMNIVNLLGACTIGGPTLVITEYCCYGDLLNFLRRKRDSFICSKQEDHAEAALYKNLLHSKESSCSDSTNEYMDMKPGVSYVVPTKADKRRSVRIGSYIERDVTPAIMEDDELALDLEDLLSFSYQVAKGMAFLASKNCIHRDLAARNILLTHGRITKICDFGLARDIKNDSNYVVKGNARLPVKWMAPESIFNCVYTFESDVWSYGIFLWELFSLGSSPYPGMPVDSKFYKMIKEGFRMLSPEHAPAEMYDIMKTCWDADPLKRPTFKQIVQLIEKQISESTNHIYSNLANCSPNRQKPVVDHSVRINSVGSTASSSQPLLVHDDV
# Sequence of UniProt Q64663 (whole entry, unmodified, looked up): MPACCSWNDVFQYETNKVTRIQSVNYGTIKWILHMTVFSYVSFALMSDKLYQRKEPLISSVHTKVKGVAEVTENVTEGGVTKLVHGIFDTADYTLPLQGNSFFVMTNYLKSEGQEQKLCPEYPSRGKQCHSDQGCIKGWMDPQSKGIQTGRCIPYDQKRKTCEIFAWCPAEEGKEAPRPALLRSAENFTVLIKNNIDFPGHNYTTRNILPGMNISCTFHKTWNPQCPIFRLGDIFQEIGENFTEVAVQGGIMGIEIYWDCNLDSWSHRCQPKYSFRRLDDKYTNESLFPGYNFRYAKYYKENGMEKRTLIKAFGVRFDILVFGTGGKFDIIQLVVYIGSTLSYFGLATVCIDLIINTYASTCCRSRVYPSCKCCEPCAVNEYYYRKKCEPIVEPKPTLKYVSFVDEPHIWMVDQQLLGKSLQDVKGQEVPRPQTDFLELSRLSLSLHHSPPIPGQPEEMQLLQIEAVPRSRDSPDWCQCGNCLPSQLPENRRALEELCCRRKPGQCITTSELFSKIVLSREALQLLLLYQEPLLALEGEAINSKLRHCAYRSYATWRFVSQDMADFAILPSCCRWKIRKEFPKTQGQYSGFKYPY
# Sequence of UniProt Q86TG7 (whole entry, looked up): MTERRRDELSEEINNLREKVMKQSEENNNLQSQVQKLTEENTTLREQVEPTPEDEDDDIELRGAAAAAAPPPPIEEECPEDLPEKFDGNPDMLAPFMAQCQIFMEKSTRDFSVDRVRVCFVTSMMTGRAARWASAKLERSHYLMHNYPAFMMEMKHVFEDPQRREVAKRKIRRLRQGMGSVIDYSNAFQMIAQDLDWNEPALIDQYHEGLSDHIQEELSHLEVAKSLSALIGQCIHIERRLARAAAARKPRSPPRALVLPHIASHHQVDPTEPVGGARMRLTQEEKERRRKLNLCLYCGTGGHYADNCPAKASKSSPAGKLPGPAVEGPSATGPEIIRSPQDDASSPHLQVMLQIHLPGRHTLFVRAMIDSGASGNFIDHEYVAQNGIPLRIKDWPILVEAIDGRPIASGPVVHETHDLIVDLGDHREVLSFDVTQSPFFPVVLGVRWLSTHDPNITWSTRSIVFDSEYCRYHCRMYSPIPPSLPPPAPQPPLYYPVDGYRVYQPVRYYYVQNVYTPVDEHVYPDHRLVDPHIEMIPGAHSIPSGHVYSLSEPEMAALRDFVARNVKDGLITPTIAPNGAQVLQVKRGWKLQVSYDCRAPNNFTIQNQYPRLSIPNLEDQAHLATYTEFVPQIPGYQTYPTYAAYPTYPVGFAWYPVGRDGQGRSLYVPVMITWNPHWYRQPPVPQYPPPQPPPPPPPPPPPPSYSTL
# Sequence of UniProt P51575 (whole entry, unmodified, looked up): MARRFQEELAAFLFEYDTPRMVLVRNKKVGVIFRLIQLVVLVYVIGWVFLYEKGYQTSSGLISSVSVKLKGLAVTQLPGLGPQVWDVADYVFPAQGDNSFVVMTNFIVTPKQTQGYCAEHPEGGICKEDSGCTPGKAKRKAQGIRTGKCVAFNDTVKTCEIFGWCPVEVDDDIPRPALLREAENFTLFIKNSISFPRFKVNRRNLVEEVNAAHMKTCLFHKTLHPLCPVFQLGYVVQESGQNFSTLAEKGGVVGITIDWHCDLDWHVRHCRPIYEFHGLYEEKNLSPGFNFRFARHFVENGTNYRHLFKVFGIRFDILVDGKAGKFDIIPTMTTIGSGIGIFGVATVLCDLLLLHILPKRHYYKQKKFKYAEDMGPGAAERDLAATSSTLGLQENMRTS
Compound,target,test,system,setting,scale,endpoint,value
CC1=C(/C=C/C(C)=C/C=C/C(C)=C/C=O)C(C)(C)CCC1,"Rhodopsin (RHO, Bos taurus, UniProt P02699, G270F)","retinal release, Trp FRET",lipid bicelles,"28 °C, G270F mutant",relative to: wild-type rhodopsin,relative koff,1.91 ± 0.09
Nc1ncnc2c1ncn2[C@@H]1O[C@H](COP(=O)(O)CP(=O)(O)OP(=O)(O)O)[C@@H](O)[C@H]1O,"P2X purinoceptor 1 (P2RX1, Homo sapiens, UniProt P51575, F188L)",calcium influx,,316 nM,relative to: ionomycin response,calcium influx,87.5% and 85.3% and 94%
N#Cc1ccn2c(-c3ccncc3)c(-c3ccc(F)cc3)nc2c1,"Negative regulator of the PHO system (PHO85, Candida albicans, UniProt Q9HGY5)","kinase binding, competitor, MIB/MS competition, item: PHO85",Candida albicans cell lysate,10 µM,relative to: DMSO,log2 fold change,0.39
C=CC(=O)N1CCC(C(=O)NCC(=O)N2CCN(c3nc(-c4cnc(N)nc4C(F)F)nc(N4CCOCC4)n3)CC2)CC1,BMPR2,KINOMEscan,,1 µM,,remaining binding,71%
NCCCCC(=O)O,"SLC6A6 (Homo sapiens, UniProt P31641, G62A)","binding, microscale thermophoresis",,"1.95 µM, room temperature, added: 50 nM labelled protein",higher = more binding,normalised MST signal,-0.0576
O=C(O)C1=CC(=C(c2ccc(O)c(C(=O)O)c2)c2ccc(O)c(C(=O)O)c2)C=CC1=O,"Flap endonuclease 1 (Homo sapiens, UniProt P39748)",gel radiotracer,,"0.1 µM, 5 min, room temperature, added: single-flap substrate 50 nM",,substrate conversion,2% and 1%
O=C(COP(=O)(O)O)[C@@H](O)[C@H](O)[C@H](O)COP(=O)(O)O,"Pyruvate kinase PKM (PKM, Homo sapiens, UniProt P14618)","pyruvate kinase activity, activator",MGC-803 cell lysate,added: AIM,,"minimum concentration, maximal activation",1620 ± 612 nM
CC(C)c1cccc2c(-c3ccccc3)cc(-c3ccc(-c4ccc(C(=O)O)cc4)[nH]3)nc12,"RARG (Homo sapiens, UniProt P13631)","reporter gene, antagonist",,,relative to: IC50 RARα over IC50 RARG,selectivity ratio,> 100 fold
[2H]c1cc(C)c(NC(=O)c2cnc(Nc3cc(N4CCCCC4)nc(C)n3)s2)c(Cl)c1,"KIT (Homo sapiens, UniProt P10721)",,,0.01 µM,,inhibition,30 to 90%
O=c1nc(SCc2ccc(C(F)(F)F)cc2)nc(SCc2csc3ccc(Cl)cc23)[nH]1,TOP2A,decatenation,,7.8 µM,,mean decatenated DNA,96.4%
O=C(COP(=O)(O)O)[C@@H](O)[C@H](O)[C@H](O)COP(=O)(O)O,"Retrotransposon-derived protein PEG10 (PEG10, Homo sapiens, UniProt Q86TG7)","thermal proteome profiling, item: PEG10",HepG2 cell lysate,"concentration not given, 57 over 37 °C",relative to: compound over control,thermal stability ratio,0.389 and 0.923 and 0.7
C1=C/COCc2cc(ccc2OCCN2CCCC2)Nc2nccc(n2)-c2cccc(c2)COC/1,BMPR2,,,concentration not given,,percent of control,80%
Nc1ncnc2c1ncn2[C@@H]1O[C@H](COP(=O)(O)OP(=O)(O)OP(=O)(O)O)[C@@H](O)[C@H]1O,"P2X purinoceptor 7 (P2rx7, Rattus norvegicus, UniProt Q64663, I214A)","ion current, agonist, two-electrode voltage clamp",Xenopus laevis oocytes,33.3 µM,relative to: highest concentration response,normalized current,0.13 and 0.174 and 0.0791
Nc1nc2c(ncn2[C@@H]2O[C@H](COP(=O)(O)O)[C@@H](O)[C@H]2O)c(=O)[nH]1,GUK1,"enzyme activity, NADH-coupled",,"1000 µM, added: KCl 150 mM",,reaction velocity,0.0727 µM/s and 0.0663 µM/s and 0.0723 µM/s
C=CC(=O)N1CCC(COCC(=O)N2CCN(c3nc(-c4cnc(N)nc4C(F)F)nc(N4CCOC[C@@H]4C)n3)CC2)CC1,"Macrophage colony-stimulating factor 1 receptor, autoinhibited (CSF1R, Homo sapiens, UniProt P07333)",KINOMEscan,,1 µM,,remaining binding,29%
O=C(NC1CCC1)c1ccc2nc(-c3cccc(NS(=O)(=O)NCCN4CCCCC4)c3)cn2c1,"KIT (Homo sapiens, UniProt P10721, A829P)",enzyme activity,,10 µM,,remaining activity,100%
CCN1CCN(c2cc(N3CCN(CC)CC3)nc(NCCNc3ccnc4cc(Cl)ccc34)n2)CC1,"NR5A2 (Homo sapiens, UniProt O00482)","reporter gene, Gal4 hybrid reporter",,20 µM,relative to: vehicle,activation,1.18 fold
OC[C@H]1OC(O)[C@H](O)[C@@H](O)[C@@H]1O (stereo partly drawn),"Hexokinase-3 (HK3, Homo sapiens, UniProt P52790, R480W)",substrate inhibition,,"mutant R480W, partial substrate inhibition model, added: ATP 20 mM",,V∞/Vmax ratio (b),0.36 ± 0.03
COc1cc(C(=O)NS(=O)(=O)c2ccccc2C)ccc1Cc1cn(C)c2ccc(NC(=O)OC3CCCC3)cc12,"Volume-regulated anion channel subunit LRRC8C, part LRRC8A IL1 chimera (LRRC8C, Homo sapiens, UniProt Q8TDW0, Y126F)","ion current, inhibitor, whole-cell patch clamp",HCT LRRC8-/- cells,"0.1 µM, +100 mV",,inhibition,0.922% and 10.6% and 24.2% and 31.9% and 25.3% and 3.42%
CC(=O)N[C@H](C(=O)N1C[C@H](O)C[C@H]1C(=O)NCc1ccc(-c2scnc2C)cc1)C(C)(C)SCCCCCCNC(=O)C[C@@H]1N=C(c2ccc(Cl)cc2)c2c(sc(C)c2C)-n2c(C)nnc21,"Bromodomain-containing protein 3, BD2 (BRD3, Homo sapiens, UniProt Q15059)",ITC,,"concentration not given, 25 °C, compound in cell, protein in syringe",,binding stoichiometry,0.701 ± 0.006
[Cl-].[Na+],GUK1,"enzyme activity, NADH-coupled",,3.75 mM,,reaction velocity,0.00946 µM/s and 0.011 µM/s and 0.0136 µM/s
C[C@H](N)C(=O)Nc1ccc2ccccc2c1,rat neuron-specific aminopeptidase,substrate,,MW 110 kDa,,kcat,15.4 s⁻¹
Cc1nn(CCc2ccccc2)c2ncc(C(=O)NCc3ccccn3)c(Cl)c12,"PREP (Homo sapiens, UniProt P48147)",intact protein MS,,"50 µM, 4 h, 37 °C",,protein adduct formation,65%
NC(=O)c1ccc[n+]([C@@H]2O[C@H](COP(=O)([O-])OP(=O)(O)OC[C@H]3O[C@@H](n4cnc5c(NCCNC(=O)CCCCCNC(=O)CCCCCNC(=O)CCCC[C@@H]6SC[C@@H]7NC(=O)N[C@@H]76)ncnc54)[C@H](O)[C@@H]3O)[C@@H](O)[C@H]2O)c1,"PARP15 (Homo sapiens, UniProt Q460N3)","substrate, DELFIA auto-modification",,,,apparent Km,1 µM
CC(=O)Nc1ccc(O)cc1,"BRD4 (Homo sapiens, UniProt O60885)","19F NMR, item: tyrosine 119",,746 µM,relative to: free protein,chemical shift change,0.121 ppm
Cc1cn([C@H]2C[C@H](N=[N+]=[N-])[C@@H](CO)O2)c(=O)[nH]c1=O,CA12,stopped-flow CO2 hydration,,,relative to: Ki hCA VI over Ki hCA XII,selectivity ratio,0.86
C[N+](C)(C)CC(=O)O,SAR11_0797 protein (Candidatus Pelagibacter ubique),isothermal titration calorimetry,,concentration not given,,binding,no binding
CCC(C)(NCCc1ccc(OC)c(Cl)c1)c1cccc(NC2=CC(=O)N(C3CCC(=O)NC3=O)C2=O)c1 (stereo not drawn),ZBTB11/CRBN,"protein degradation, degrader, HiBiT luminescence",MOLT-4,,,Dmax,42%
Cc1cn([C@H]2C[C@H](O)[C@@H](CO)O2)c(=O)[nH]c1=O,deoxyribonucleoside phosphotransferase I (Trichomonas vaginalis),substrate,,added: p-nitrophenylphosphate 100 mM,,Km,3.57 ± 0.42 mM
CC[C@@H]1[C@H](F)C(=O)N[C@@H]1COc1nccc2cc(C(N)=O)c(OC)cc12,"IRAK3 (Homo sapiens, UniProt Q9Y616)","ATP-site probe binding, ActivX profiling",THP-1 cell lysate,"0.2 mM, Lys1 site",,inhibition,72.5%
CCC1(O)CCCN(C(=O)c2ccc(-c3ccc(F)c(NC(=O)CCl)c3)cc2)C1 (stereo not drawn),"DNA dC->dU-editing enzyme APOBEC-3B, C-terminal domain (Homo sapiens, UniProt Q9UH17)","covalent modifier, intact protein mass spectrometry, item: adduct +26487 Da",,"25 µM, 3 h, 1-fold molar excess",,protein adduct,0%
c1ccc2[nH]c(-c3cscn3)nc2c1,"GSK3A (Homo sapiens, UniProt P49840)","kinase activity, inhibitor, Z'-LYTE",,,,Hill slope,1.05
Nc1ncnc2c1ncn2[C@@H]1O[C@H](COP(=O)(O)OP(=O)(O)O)[C@@H](O)[C@H]1O,"DNA mismatch repair protein MutL (mutL, Bacillus subtilis, UniProt P49850, K302S)","thermal stabilisation, differential scanning fluorimetry",,"pH 7.5, added: nucleotide 2 mM",,delta Tm,~3 °C
O=C(O)c1ccc(Nc2ncc3c(n2)-c2ccc(Cl)cc2C(c2c(F)cccc2F)=NC3)cc1,Mnk2(h),kinase activity,,1 µM,,remaining activity,94%
O=[N+]([O-])c1cc(C(F)(F)F)ccc1NCc1ccsc1,"Endothelial PAS domain-containing protein 1, PAS-B domain (EPAS1, Homo sapiens, UniProt Q99814, N288Q)","binding, ITC, reverse mode",,,,ΔH,-5.65 ± 0.21 kcal/mol
Cc1[nH]c(/C=C2\C(=O)Nc3ccc(C(=O)N[C@H](C)c4ccc(F)cc4)cc32)c(C)c1NC(=O)C(=O)c1ccccc1,"GRK5 (Homo sapiens, UniProt P34947)",tubulin phosphorylation,,,relative to: GRK2 IC50 over GRK5 IC50,selectivity ratio,> 900 fold
Cc1nc(CSc2nc(SCc3ccc(C(C)C)cc3)nc(=O)[nH]2)cs1,TOP2A,decatenation,,"7.8 µM, replicate 1",,decatenated DNA,55.8%
[H]/N=C(/N)NCC(=O)O,"SLC6A6 (Homo sapiens, UniProt P31641, L306A)","binding, microscale thermophoresis",,"3.91 µM, room temperature, added: 50 nM labelled protein",higher = more binding,normalised MST signal,0.000278
Cc1cc(C)c2nc(C)cc(NCCc3ccccc3)c2c1,"CatSper channel complex (Homo sapiens, UniProt Q7RTX7+Q86XQ3+Q8NEC5+Q96P56)","ion current, whole-cell patch clamp",human sperm,"10 µM, at +80 mV",,outward current density,3.3 ± 2.9 pA/pF
O=c1nc(SCc2cc(F)cc(C(F)(F)F)c2)nc(SCc2ccc3nc(Cl)ccc3c2)[nH]1,TOP2A,DNA relaxation,,15.6 µM,,mean relaxed DNA,99.3%
N#CSCCCCOc1ccc2c(-c3ccccc3)cc(=O)oc2c1,CA12,stopped-flow CO2 hydration,,,relative to: Ki CA II over Ki CA XII,selectivity ratio,> 427
CN(C)C(=O)c1cc2cnc(Nc3ccc(-c4ccc5c(=O)cc(N6CCOCC6)oc5c4)cc3)nc2n1C1CCCC1,"Cyclin-dependent kinase 4, with cyclin D1 (CDK4, Homo sapiens, UniProt P11802)",KINOMEscan binding,,1.0 µM,relative to: control,remaining binding,2.6%
COc1cc(-c2cncc3c2CN(C)Cc2cc(N4CCNCC4)ccc2-3)cc(OC)c1OC,"KIT (Homo sapiens, UniProt P10721, D816V)",kinase activity,,"1 µM, added: ATP 10 µM",relative to: DMSO control,remaining activity,87%
Oc1ccc(/C=C/c2cc(O)cc(O)c2)cc1,"O-methyltransferase (Sorghum bicolor, UniProt A0A1B6PFV1)",,,"concentration not given, added: MET+",,ΔG of binding,-7.42 kcal/mol
O=C1CCC(N2C(=O)C=C(Nc3cccc(C4(NCCc5ccc(C(F)(F)F)c(Cl)c5)CCCC4)c3)C2=O)C(=O)N1 (stereo not drawn),ZBTB11/CRBN,"protein degradation, degrader, HiBiT luminescence",MOLT-4,,,Dmax,60%

# A few entries again:
Compound,target,test,system,setting,scale,endpoint,value
CCC1(O)CCCN(C(=O)c2ccc(-c3ccc(F)c(NC(=O)CCl)c3)cc2)C1 (stereo not drawn),"DNA dC->dU-editing enzyme APOBEC-3B, C-terminal domain (Homo sapiens, UniProt Q9UH17)","covalent modifier, intact protein mass spectrometry, item: adduct +26487 Da",,"25 µM, 3 h, 1-fold molar excess",,protein adduct,0%
O=C(NC1CCC1)c1ccc2nc(-c3cccc(NS(=O)(=O)NCCN4CCCCC4)c3)cn2c1,"KIT (Homo sapiens, UniProt P10721, A829P)",enzyme activity,,10 µM,,remaining activity,100%
